Published values pooled from the literature.
Parts stem from different laboratories: compare values within a part only.
Chain of UniProt P35916 (whole entry, looked up): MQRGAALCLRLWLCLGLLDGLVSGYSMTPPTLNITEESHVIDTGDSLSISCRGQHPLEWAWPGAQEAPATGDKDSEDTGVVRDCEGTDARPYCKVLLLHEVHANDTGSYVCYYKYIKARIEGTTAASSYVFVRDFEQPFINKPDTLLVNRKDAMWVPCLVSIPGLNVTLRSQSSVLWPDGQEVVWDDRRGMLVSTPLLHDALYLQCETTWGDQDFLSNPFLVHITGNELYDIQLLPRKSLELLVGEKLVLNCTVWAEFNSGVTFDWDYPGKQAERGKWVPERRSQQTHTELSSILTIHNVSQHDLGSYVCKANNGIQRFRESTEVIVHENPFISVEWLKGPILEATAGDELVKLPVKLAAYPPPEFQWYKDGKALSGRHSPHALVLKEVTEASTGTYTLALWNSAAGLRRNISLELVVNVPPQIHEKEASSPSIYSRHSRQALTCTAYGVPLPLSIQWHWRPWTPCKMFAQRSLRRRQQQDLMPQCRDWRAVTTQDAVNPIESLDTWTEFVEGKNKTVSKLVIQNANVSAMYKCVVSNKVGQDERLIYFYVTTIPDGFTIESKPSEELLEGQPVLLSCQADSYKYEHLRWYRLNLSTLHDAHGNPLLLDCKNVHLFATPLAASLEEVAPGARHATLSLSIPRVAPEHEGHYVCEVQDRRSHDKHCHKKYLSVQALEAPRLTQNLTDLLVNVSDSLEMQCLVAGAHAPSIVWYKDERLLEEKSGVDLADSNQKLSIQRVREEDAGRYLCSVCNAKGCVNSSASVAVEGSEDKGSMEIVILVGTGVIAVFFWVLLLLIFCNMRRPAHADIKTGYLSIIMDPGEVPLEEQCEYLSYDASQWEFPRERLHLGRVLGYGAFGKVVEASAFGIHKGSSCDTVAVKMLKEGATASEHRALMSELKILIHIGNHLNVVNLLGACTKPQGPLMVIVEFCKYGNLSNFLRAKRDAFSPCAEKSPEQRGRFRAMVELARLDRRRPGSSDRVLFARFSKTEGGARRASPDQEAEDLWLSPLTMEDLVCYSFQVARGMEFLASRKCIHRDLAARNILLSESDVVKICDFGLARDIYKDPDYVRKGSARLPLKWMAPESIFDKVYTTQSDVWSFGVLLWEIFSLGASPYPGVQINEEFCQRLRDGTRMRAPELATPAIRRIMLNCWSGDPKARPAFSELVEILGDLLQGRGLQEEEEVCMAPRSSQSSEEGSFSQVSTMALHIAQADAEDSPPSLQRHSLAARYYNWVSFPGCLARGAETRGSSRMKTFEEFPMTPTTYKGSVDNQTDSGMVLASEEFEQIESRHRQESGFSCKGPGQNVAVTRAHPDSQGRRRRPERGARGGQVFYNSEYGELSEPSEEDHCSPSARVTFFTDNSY
Chain of UniProt O15146 (whole entry, looked up): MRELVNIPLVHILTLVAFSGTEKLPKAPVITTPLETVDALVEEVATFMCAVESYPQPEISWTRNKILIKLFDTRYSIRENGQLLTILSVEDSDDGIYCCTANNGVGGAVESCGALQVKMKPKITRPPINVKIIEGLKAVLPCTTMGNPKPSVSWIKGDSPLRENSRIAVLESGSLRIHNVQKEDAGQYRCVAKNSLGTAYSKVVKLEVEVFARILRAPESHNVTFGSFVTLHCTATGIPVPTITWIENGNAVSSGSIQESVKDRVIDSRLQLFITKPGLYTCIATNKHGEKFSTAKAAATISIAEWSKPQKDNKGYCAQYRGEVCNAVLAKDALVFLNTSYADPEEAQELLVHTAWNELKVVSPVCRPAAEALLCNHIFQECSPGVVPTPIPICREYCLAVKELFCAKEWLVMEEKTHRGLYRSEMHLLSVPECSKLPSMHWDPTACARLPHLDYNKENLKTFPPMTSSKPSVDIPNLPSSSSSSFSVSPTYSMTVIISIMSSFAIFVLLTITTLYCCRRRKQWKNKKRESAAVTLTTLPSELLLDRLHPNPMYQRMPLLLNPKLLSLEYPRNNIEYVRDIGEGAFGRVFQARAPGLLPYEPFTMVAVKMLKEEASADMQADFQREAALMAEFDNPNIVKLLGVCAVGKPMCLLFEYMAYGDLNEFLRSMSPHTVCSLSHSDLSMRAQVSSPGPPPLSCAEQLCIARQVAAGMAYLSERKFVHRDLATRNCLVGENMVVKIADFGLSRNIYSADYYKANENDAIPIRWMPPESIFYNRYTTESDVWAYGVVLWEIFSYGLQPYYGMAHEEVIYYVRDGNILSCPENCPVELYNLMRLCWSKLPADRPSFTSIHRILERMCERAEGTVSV
Chain of UniProt P49674 (whole entry, looked up): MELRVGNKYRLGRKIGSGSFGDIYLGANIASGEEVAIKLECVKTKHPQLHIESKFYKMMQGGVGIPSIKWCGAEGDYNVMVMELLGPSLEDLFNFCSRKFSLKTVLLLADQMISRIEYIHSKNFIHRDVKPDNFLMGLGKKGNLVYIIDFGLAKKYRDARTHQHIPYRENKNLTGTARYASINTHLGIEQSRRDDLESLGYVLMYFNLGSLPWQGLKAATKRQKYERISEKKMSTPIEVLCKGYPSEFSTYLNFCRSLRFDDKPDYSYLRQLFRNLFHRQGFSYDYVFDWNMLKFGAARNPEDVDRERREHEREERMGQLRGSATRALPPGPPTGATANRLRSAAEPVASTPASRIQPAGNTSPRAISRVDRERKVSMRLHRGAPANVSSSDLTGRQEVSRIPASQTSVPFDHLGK
Chain of UniProt P17948 (whole entry, looked up): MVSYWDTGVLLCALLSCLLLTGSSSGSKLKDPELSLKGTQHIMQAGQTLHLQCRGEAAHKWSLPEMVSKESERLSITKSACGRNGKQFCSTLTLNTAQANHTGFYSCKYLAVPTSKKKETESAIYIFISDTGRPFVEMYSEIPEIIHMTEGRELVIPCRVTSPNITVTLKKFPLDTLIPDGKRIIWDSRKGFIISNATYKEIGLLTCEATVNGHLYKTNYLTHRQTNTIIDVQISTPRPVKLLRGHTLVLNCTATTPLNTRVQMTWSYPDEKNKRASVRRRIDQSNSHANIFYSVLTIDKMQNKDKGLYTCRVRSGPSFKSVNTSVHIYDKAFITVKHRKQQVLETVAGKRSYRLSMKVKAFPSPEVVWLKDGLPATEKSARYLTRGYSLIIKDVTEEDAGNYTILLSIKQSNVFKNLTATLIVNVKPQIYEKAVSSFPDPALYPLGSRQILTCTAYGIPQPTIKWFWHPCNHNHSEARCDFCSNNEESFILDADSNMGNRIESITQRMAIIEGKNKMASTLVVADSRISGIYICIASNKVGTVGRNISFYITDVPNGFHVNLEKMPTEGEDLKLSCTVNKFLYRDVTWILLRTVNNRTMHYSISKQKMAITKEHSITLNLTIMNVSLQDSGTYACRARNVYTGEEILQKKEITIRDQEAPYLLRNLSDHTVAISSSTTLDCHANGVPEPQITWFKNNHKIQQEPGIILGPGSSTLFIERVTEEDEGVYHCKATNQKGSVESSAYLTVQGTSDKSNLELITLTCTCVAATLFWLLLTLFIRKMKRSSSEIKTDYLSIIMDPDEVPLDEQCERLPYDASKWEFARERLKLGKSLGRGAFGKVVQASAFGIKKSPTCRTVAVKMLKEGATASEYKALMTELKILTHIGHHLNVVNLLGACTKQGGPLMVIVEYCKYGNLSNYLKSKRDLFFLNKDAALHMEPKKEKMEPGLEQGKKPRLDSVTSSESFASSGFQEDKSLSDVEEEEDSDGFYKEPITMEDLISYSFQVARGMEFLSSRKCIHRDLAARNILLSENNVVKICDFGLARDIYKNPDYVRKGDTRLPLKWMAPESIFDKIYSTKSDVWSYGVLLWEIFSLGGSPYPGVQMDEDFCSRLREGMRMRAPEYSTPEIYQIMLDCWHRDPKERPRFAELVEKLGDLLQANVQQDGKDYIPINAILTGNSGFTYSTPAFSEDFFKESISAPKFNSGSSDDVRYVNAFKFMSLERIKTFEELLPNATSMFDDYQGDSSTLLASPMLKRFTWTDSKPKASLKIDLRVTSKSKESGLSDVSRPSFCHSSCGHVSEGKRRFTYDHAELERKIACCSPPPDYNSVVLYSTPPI
Chain of UniProt P48730 (whole entry, looked up): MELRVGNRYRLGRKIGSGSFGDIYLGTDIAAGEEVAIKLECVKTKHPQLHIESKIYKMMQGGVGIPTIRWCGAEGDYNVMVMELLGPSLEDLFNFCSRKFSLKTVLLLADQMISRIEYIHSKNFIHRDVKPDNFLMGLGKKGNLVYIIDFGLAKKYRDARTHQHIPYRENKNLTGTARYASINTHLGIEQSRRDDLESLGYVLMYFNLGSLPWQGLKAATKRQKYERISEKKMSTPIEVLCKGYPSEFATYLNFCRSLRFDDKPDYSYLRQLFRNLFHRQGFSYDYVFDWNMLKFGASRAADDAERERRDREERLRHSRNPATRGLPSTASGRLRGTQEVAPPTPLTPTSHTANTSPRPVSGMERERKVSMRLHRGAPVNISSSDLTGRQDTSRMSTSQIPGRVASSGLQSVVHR
Chain of UniProt Q14012 (whole entry, looked up): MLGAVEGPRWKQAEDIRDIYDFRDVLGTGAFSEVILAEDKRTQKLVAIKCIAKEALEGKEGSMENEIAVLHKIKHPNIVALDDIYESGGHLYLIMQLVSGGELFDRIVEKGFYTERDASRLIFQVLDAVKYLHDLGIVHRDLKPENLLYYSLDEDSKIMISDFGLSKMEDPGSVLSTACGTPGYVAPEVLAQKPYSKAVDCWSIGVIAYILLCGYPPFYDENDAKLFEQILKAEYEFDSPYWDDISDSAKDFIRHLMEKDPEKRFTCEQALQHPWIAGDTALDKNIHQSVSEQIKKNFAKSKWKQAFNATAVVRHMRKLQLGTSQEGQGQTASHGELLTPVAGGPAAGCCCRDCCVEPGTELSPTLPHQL

Series 1 — method: protein-binding microarray; molecule type: hairpin DNA; sample: in vitro; tested at: not given; relative to: not given; direction: higher = stronger binding; all sequences stand within: GAGGCCGT … ACGGCCTCACACTC
Target: Homeobox protein Hox-B13, full length (HOXB13, Homo sapiens, UniProt Q92826, residues 1-284)
Chain of UniProt Q92826 (whole entry, looked up): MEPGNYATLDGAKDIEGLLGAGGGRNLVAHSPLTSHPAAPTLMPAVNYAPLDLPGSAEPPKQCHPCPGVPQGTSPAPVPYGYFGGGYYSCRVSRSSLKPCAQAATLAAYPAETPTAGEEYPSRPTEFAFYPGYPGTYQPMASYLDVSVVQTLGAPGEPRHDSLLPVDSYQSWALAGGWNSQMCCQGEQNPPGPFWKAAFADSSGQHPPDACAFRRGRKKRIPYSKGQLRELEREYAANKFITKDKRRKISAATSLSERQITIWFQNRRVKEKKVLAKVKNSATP
Setting: whole hairpin DNA, median over replicate spots
The median fluorescence of `CTTATTGGGGCCTCCTGGCCCCAATAAG (5mC at 9)` is reported as 4250 a.u.
`CTTATTGGGGCCTCCTGGCCCCAATAAG` has a median fluorescence of 4270 a.u.
With `TTGACGAGGGCCTCCTGGCCCTCGTCAA` the median fluorescence was 4330 a.u.
The median fluorescence of `TTTACGAGTGCCTCCTGGCACTCGTAAA` is reported as 5110 a.u.
`TTTACGAGGGCCTCCTGGCCCTCGTAAA (5mC at 28)` has a median fluorescence of 5140 a.u.
For `TTTAATGGGGCCTCCTGGCCCCATTAAA`, the median fluorescence was 4810 a.u.
`TCTATTGGGGCCTCCTGGCCCCAATAGA (5mC at 10)` has a median fluorescence of 4070 a.u.
`TTTACGAGGGCCTCCTGGCCCTCGTAAA (5mC at 29)` has a median fluorescence of 4590 a.u.

Series 2 — method: protein binding microarray; molecule type: double-stranded DNA, one strand shown; sample: in vitro; tested at: not given; relative to: not given; direction: higher = stronger binding
Target: Histone acetyltransferase KAT6A, both winged helices, GST fusion (KAT6A, Homo sapiens, UniProt Q92794, residues 1-181)
Setting: 8-mer, flanks averaged, mean of 2 arrays, mostly near background
Residues (chain): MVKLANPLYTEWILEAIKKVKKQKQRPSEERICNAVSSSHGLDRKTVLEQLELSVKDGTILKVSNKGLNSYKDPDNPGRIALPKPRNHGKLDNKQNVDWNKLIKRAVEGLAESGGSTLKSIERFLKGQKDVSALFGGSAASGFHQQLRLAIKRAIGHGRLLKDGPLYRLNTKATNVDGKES
`CTAGTCCA` gave an E-score of -0.16.
The E-score of `CCCGCCGC` is reported as 0.345.
`ACATGACT` has an E-score of -0.1.
The E-score of `TCGCAAAA` is reported as 0.0616.
`CGCTTCTC` has an E-score of 0.227.
The E-score of `CGTGGGCA` is reported as -0.072.
`ATACCCCG` has an E-score of 0.169.
The E-score of `ATCGTAGG` is reported as -0.196.

Series 3 — effect on: cell-free assay; method: competition with immobilised ligand; tested at: 1 µM
SMILES: Nc1cnc(N2CCc3cc(S(=O)(=O)Nc4c(F)cc(Cl)cc4F)cc(N4CCCC4=O)c32)nc1
For Serine/threonine-protein kinase 24 (STK24, Homo sapiens, UniProt Q9Y6E0): remaining binding read 100%.
Casein kinase I isoform gamma-1 (CSNK1G1, Homo sapiens, UniProt Q9HCP0) — remaining binding: 97%.
The remaining binding was 87% (Phosphatidylinositol 4,5-bisphosphate 3-kinase catalytic subunit beta isoform (PIK3CB, Homo sapiens, UniProt P42338)).
The remaining binding was 100% (Cyclin-dependent kinase 11B (CDK11B, Homo sapiens, UniProt P21127)).
For Serine/threonine-protein kinase B-raf (BRAF, Homo sapiens, UniProt P15056): remaining binding read 98%.
The remaining binding was 93% (Phosphatidylinositol 4-kinase beta (PI4KB, Homo sapiens, UniProt Q9UBF8)).
It gave 100% for remaining binding (SRSF protein kinase 3 (SRPK3, Homo sapiens, UniProt Q9UPE1)).
Vascular endothelial growth factor receptor 3 (FLT4, Homo sapiens, UniProt P35916) — remaining binding: 86%.
For Glycogen synthase kinase-3 alpha (GSK3A, Homo sapiens, UniProt P49840): remaining binding read 100%.
The remaining binding was 99% (Focal adhesion kinase 1 (PTK2, Homo sapiens, UniProt Q05397)).
The remaining binding was 67% (Calcium/calmodulin-dependent protein kinase type 1B (PNCK, Homo sapiens, UniProt Q6P2M8)).
The remaining binding was 100% (Tyrosine-protein kinase ABL1, non-phosphorylated (ABL1, Homo sapiens, UniProt P00519, T315I)).
For ALK tyrosine kinase receptor (ALK, Homo sapiens, UniProt Q9UM73): remaining binding read 100%.

Series 4 — effect on: enzyme activity; mode: inhibitor; tested at: 0.5 µM; relative to: control
Structure (SMILES): COc1cc(Nc2c(C#N)cnc3cc(OCCCN4CCN(C)CC4)c(OC)cc23)c(Cl)cc1Cl
For Calcium/calmodulin-dependent protein kinase type 1 (CAMK1, Homo sapiens, UniProt Q14012): remaining activity read 68.9%.
It gave 105% for remaining activity (Serine/threonine-protein kinase PAK 6 (PAK6, Homo sapiens, UniProt Q9NQU5)).
SRSF protein kinase 1 (SRPK1, Homo sapiens, UniProt Q96SB4) — remaining activity: 98.5%.
It gave 10.9% for remaining activity (Casein kinase I isoform delta (CSNK1D, Homo sapiens, UniProt P48730)).
The remaining activity was 4.38% (Ephrin type-A receptor 6 (EPHA6, Homo sapiens, UniProt Q9UF33)).
Serine/threonine-protein kinase PAK 1 (PAK1, Homo sapiens, UniProt Q13153) — remaining activity: 11.7%.
Vascular endothelial growth factor receptor 1 (FLT1, Homo sapiens, UniProt P17948) — remaining activity: 44.5%.
For Tyrosine-protein kinase Tec (TEC, Homo sapiens, UniProt P42680): remaining activity read 96.1%.
The remaining activity was 69.3% (Dual specificity protein kinase CLK2 (CLK2, Homo sapiens, UniProt P49760)).
For Protein kinase C theta type (PRKCQ, Homo sapiens, UniProt Q04759): remaining activity read 71.5%.
The remaining activity was 81.7% (Muscle, skeletal receptor tyrosine-protein kinase (MUSK, Homo sapiens, UniProt O15146)).
For Casein kinase I isoform epsilon (CSNK1E, Homo sapiens, UniProt P49674): remaining activity read 11.4%.

Some of these lines once more (series 3):
Vascular endothelial growth factor receptor 3 (FLT4, Homo sapiens, UniProt P35916) — remaining binding: 86%.
For Glycogen synthase kinase-3 alpha (GSK3A, Homo sapiens, UniProt P49840): remaining binding read 100%.
The remaining binding was 99% (Focal adhesion kinase 1 (PTK2, Homo sapiens, UniProt Q05397)).
The remaining binding was 67% (Calcium/calmodulin-dependent protein kinase type 1B (PNCK, Homo sapiens, UniProt Q6P2M8)).
